Assay results gathered from unrelated publications.
A part holds a random share of what one study measured. Changes are numbered by the printed parent chain.

Block 1 — technique: DHFR PCA, deep sequencing; matrix: yeast; with: (+)-ABA 200 µM; baseline: wild-type fitted maximum; reading: higher = stronger binding
Target: ABI1, truncated, D143A, DHFR fusion (Arabidopsis thaliana)
Notes: methotrexate growth selection, single substitutions
Starting sequence: PYL1, truncated, DHFR fusion (Arabidopsis thaliana); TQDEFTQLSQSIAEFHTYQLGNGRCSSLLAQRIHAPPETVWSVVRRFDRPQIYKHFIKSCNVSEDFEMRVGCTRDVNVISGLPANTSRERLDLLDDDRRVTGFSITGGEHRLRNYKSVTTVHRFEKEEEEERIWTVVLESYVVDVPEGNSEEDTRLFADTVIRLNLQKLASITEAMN
| Substitution | relative binding score [%] |
| --- | --- |
| R99N | 97 |
| I33M | 94.4 |
| R155W | 36.9 |
| A175H | 101 |
| E89C | -5.37 |

Block 2 — target: CCNE2, cyclin fold, Cln2 fusion (human); technique: yeast growth competition, sequencing; matrix: yeast; notes: strong parent motif; baseline: not given; reading: higher = stronger binding
Starting sequence: SCAPER docking peptide (human); SNARRSLNFGGST; partner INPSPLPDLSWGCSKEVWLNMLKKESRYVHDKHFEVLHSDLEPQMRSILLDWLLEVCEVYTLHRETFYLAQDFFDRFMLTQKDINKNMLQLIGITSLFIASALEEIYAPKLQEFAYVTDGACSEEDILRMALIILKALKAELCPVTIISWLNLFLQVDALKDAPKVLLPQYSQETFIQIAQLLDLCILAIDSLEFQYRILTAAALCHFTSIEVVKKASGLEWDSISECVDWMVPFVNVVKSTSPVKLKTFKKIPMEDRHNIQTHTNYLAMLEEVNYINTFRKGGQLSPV
| Substitution | normalised enrichment score |
| --- | --- |
| R4W | 0.373 |
| S1K | 0.983 |
| T13K | 1.49 |
| R4I | 1.19 |
| N8S | 1.49 |
| A3M | 1.28 |

Block 3 — technique: protein-binding microarray; molecule type: double-stranded DNA, one strand shown; matrix: in vitro; concentration: not given; reading: higher = stronger binding
Target: Max-binding protein MNT, bHLH-zipper, MAX partner unstated (MNT, Homo sapiens, UniProt Q99583, residues 220-300)
Notes: k-mer, scored over probes, only values ≥0.25
Target sequence (chain): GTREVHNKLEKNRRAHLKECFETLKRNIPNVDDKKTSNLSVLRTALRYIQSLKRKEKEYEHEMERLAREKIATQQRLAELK
| Strand | E-score |
| --- | --- |
| CACCCGCG | 0.274 |
| ACATGGGT | 0.353 |
| CCCTACCA | 0.273 |
| ATGCGAGG | 0.319 |
| GCACGTGA | 0.49 |
| ACGTGTCG | 0.416 |

Further values, each from its own experiment
| Substance | target | test | system | setting | how to read | measurement | result |
| --- | --- | --- | --- | --- | --- | --- | --- |
| PhoQ, residues 284 288 289 292 302 303 TTSMTC | PhoP, residues 12 14 15 18 19 LYFRQ (Escherichia coli, UniProt P23836) | Sort-seq, item: YFP reporter | E. coli | PhoQ-PhoP variant library, with: 10 µM Mg2+ | baseline: high Mg2+ state, higher = stronger signaling | fold induction | 4.03 |

A few entries again (block 1):
| Substitution | relative binding score [%] |
| --- | --- |
| R99N | 97 |
| I33M | 94.4 |
| R155W | 36.9 |
